Measurements of several laboratories.
Each numbered part is a random draw from the data of one study; scales do not carry over between parts.
UniProt P08908, sequence (whole entry, looked up): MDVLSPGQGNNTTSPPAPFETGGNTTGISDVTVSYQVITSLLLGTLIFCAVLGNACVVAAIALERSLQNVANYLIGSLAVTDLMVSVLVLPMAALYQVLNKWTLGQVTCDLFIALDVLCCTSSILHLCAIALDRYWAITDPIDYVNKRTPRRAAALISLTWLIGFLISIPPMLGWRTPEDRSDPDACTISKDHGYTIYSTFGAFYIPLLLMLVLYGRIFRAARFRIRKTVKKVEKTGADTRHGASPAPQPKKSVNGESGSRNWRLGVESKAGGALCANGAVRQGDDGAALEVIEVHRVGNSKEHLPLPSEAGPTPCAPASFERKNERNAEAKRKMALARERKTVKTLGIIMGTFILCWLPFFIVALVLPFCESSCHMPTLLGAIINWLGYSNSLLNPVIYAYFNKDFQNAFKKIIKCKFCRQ
UniProt P28335, sequence (whole entry, looked up): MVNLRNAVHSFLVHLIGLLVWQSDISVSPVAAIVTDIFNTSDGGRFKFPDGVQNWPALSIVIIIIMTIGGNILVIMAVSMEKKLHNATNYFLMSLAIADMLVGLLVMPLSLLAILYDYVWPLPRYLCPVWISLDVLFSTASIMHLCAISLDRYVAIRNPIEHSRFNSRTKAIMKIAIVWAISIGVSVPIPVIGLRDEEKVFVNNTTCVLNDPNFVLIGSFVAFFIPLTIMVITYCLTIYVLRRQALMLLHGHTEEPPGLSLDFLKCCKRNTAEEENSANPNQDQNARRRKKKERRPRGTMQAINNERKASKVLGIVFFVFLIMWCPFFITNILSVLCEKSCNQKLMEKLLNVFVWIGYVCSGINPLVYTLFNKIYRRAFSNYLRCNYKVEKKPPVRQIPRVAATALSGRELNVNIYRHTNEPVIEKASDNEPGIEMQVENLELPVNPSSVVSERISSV
UniProt P28223, sequence (whole entry, looked up): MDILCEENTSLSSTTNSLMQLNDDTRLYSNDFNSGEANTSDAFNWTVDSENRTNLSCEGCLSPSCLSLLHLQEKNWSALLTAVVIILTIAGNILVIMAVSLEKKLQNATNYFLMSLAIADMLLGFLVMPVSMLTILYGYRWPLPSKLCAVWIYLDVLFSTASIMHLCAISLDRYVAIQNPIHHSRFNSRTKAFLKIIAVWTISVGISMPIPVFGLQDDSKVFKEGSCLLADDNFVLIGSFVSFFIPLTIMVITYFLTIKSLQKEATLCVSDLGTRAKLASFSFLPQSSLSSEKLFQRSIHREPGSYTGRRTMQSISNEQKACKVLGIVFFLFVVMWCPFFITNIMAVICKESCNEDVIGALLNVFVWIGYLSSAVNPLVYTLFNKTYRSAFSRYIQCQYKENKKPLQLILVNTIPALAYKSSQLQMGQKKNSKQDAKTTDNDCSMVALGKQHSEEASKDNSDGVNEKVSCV

Set 1
Target: vesicular stomatitis virus glycoprotein
Observed: viral entry
Technique: VSVΔG-G pseudovirus
Concentration: 10 µM
Quantity: inhibition
c1csc(-c2csc3nc(CN4CCOCC4)nc(Sc4nnc(C5CC5)o4)c23)c1: 16%
c1ccc(Nc2nccc(-c3cccnc3)n2)cc1: 21%
N=C(N)Nc1ccc(C(=O)Oc2ccc3cc(C(=N)N)ccc3c2)cc1: -47%
N#C/C(=C\Nc1cc(C(F)(F)F)cc(C(F)(F)F)c1)S(=O)(=O)Cc1ccc(Cl)cc1: 35%
c1ccc(-c2cnc3ccccc3c2)c(OCCn2ccnc2)c1: 1.4%
C=CCNc1nnc(Sc2ncnc3ccsc23)s1: 7.5%
CC(c1ccc(-c2ccc3sc(N)nc3c2)cc1)N1CCOCC1 (centres unmarked): 16%
CNC(=O)C(C#N)(Cc1cc(Cl)cc2c1OCOC2)Cc1cc(Cl)cc2c1OCOC2: -10%

Set 2
SMILES: Cc1c(N2CCCC2)nc2ccc(Br)cc2c1C(=O)NC[C@H](CCC(=O)O)c1ccccc1Cl
Observed: cell-free assay
Concentration: 10 µM
Quantity: inhibition
5-hydroxytryptamine receptor 2C (HTR2C, Homo sapiens, UniProt P28335): 2.98%
5-hydroxytryptamine receptor 1A (HTR1A, Homo sapiens, UniProt P08908): 5.62%
5-hydroxytryptamine receptor 2A (HTR2A, Homo sapiens, UniProt P28223): 5.24%

Set 3
Target: Dual specificity tyrosine-phosphorylation-regulated kinase 1B (DYRK1B, Homo sapiens, UniProt Q9Y463)
Observed: enzyme activity
Mode: inhibitor
Technique: radiometric
Concentration: 0.5 µM
Quantity: remaining activity
NC(=O)c1cccc(-c2cc(Nc3ccc(OC(F)(F)F)cc3)ncn2)c1: 97.9%
CNc1cc2c(Nc3cccc(Br)c3)ncnc2cn1: 92.3%
C[C@@H](N)[C@H]1CC[C@H](C(=O)Nc2ccncc2)CC1: 92.5%
O=C1c2ccccc2-c2nc3nnnn3nc21: 81%
NC(=O)c1ccc(-c2nc(-c3ccc4c(c3)OCCO4)c(-c3ccccn3)[nH]2)cc1: 100%
FC(F)(F)c1ccc(/C=C/c2nc(COc3ccc(CCCCn4ccnn4)cc3)co2)cc1: 96.7%
N#CC(c1ccnc(NCCc2cccnc2)n1)c1nc2ccccc2s1 (centres unmarked): 53.2%
CC(C)(C)c1nc2c3cc[nH]c(=O)c3c3cc(F)ccc3c2[nH]1: 88.2%
COc1cc2c(N3CCN(C(=O)Nc4ccc(OC(C)C)cc4)CC3)ncnc2cc1OCCCN1CCCCC1: 97.9%
O=c1c(-c2ccc(F)cc2)c(-c2ccncc2)[nH]n1-c1ccc(Cl)cc1: 92.2%
CC(C)N(CCC(=O)c1ccc2ccccc2c1)Cc1ccccc1: 101%
O=Nc1c(-c2c(O)[nH]c3ccccc23)[nH]c2ccccc12: 84.7%
COc1cc2c(Nc3ccc(Br)cc3F)ncnc2cc1OCC1CCN(C)CC1: 93%
O=C(O)/C=C/c1cc(Br)c(Br)c(Br)c1Br: 79.1%
N#C/C(=C(/N)SC1C=CC=CC1)c1cccc(C(O)c2ccncc2)c1 (centres unmarked): 99.9%
CCCCc1c(-c2ccc(O)cc2)[nH]c2nccnc12: 73.3%
O=C(c1ccccc1)c1ccc(N2CCOCC2)cc1O: 105%
CC(C)n1cnc2c(Nc3cccc(Cl)c3)nc(NCCO)nc21: 78.8%
O=C1NC(=O)/C(=C/c2ccc3c(c2)OC(F)(F)O3)S1: 101%
CCN(CC)CCCCN1c2ccccc2Oc2ccc(Cl)cc21: 101%
Nc1nc(Nc2ccc(S(N)(=O)=O)cc2)nn1C(=S)Nc1c(F)cccc1F: 14.1%
Clc1ccc(Nc2nnc(Cc3ccncc3)c3ccccc23)cc1: 109%
c1cc(-c2cnn3cc(-c4ccc(OCCN5CCCCC5)cc4)cnc23)ccn1: 26.2%

Set 4
SMILES: CC(C)n1cnc(-c2ccc(F)cc2)c1-c1ncc(C(=O)Nc2ccc(N3CCN(C)CC3)cc2)[nH]1
Technique: Phase 2a trial
Measured: influenza like illness
Host: idiopathic pulmonary fibrosis patients
Quantity: patients with adverse events
30 mg once daily, grade 4 maximum intensity: 0%
dose not given, grade 1 maximum intensity, all arms: 0%
dose not given, grade 3 maximum intensity, all arms: 0%
30 mg once daily, grade 5 maximum intensity: 0%

Set 5
Cell line: mouse MPNST tumor cells
Technique: high-content immunofluorescence imaging
Measured: nuclear SOX9
Concentration: 10 µM
Time: 12 h
Notes: mean of 2 replicates
Baseline: DMSO control
Direction: higher = more nuclear SOX9
Quantity: nuclear SOX9 intensity
Cn1ncnc1COc1nn2c(-c3c(F)cccc3F)nnc2cc1C1CCC1: 105 % of DMSO
CC(C)N(CCC(C(N)=O)(c1ccccc1)c1ccccn1)C(C)C (centres unmarked): 116 % of DMSO
O=C1Nc2ccccc2C2(CCN(CCc3ccc(C(F)(F)F)cc3)CC2)O1: 146 % of DMSO
COc1cc(C(=O)N2CC[C@@H](O)[C@@H](N)C2)cc2nc(-c3cc4ccccc4n3CC3CC3)n(C)c12: 182 % of DMSO
O=S(=O)(c1ccccc1F)N1CCOc2c(N3CCNCC3)cccc21: 124 % of DMSO
COC[C@@H](NC(C)=O)C(=O)NCc1ccccc1: 110 % of DMSO

Set 6
Target: Diamine acetyltransferase 1 (Homo sapiens, UniProt P21673)
Mode: inhibitor
Concentration: 10 µM
Baseline: control
Quantity: remaining activity
Construct (P21673 1-171): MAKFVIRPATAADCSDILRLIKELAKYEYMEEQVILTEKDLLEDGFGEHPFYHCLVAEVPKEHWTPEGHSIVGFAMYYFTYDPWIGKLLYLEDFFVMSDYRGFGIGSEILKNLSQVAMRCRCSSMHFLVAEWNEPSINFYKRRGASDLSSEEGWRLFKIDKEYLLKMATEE
O=C(O)[C@@H]1CCN1: 95.6%
CCCCCc1cc(O)c(C/C=C(\C)CCC=C(C)C)c(O)c1: 91.4%
CC1=C2C[C@H]3[C@@H](CC=C4C[C@@H](O)CC[C@@]43C)[C@@H]2CC[C@]12O[C@@H]1C[C@H](C)CN[C@H]1[C@H]2C: 92.2%
